Measured values of several laboratories.
Every numbered part comes from another study and shows a few of its results, in no order. Several values in a cell are separate wells, animals, samples, runs or records.
UniProt P28222, sequence (whole entry, looked up): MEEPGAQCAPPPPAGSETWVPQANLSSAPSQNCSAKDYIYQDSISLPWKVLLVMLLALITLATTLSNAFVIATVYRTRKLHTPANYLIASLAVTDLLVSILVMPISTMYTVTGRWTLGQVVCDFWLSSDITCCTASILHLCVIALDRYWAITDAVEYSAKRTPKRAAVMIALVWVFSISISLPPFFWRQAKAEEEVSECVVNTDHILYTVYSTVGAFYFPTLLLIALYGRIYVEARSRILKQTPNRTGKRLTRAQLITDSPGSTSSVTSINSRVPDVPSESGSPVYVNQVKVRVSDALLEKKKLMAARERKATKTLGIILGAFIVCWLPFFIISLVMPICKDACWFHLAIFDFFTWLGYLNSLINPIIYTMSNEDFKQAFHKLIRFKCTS
UniProt P25021, sequence (whole entry, looked up): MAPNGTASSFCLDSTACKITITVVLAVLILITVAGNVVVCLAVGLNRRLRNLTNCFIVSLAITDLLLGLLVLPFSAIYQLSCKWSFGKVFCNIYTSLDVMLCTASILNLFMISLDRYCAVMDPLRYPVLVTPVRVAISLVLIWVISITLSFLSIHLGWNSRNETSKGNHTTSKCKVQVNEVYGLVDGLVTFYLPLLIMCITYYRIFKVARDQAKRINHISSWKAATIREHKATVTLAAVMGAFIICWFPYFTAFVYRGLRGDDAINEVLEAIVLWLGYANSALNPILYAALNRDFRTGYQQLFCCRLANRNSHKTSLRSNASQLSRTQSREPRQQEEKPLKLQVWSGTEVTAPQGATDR
UniProt P11802, sequence (whole entry, looked up): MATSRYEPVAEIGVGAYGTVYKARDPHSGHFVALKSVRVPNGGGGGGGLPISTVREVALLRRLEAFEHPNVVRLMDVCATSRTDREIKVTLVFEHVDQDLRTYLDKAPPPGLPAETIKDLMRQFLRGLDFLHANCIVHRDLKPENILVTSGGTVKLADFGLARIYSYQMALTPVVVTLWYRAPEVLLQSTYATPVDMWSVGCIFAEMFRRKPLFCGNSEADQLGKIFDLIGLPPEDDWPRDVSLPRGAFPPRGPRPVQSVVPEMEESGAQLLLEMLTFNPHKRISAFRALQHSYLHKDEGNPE
UniProt Q9UEE5, sequence (whole entry, looked up): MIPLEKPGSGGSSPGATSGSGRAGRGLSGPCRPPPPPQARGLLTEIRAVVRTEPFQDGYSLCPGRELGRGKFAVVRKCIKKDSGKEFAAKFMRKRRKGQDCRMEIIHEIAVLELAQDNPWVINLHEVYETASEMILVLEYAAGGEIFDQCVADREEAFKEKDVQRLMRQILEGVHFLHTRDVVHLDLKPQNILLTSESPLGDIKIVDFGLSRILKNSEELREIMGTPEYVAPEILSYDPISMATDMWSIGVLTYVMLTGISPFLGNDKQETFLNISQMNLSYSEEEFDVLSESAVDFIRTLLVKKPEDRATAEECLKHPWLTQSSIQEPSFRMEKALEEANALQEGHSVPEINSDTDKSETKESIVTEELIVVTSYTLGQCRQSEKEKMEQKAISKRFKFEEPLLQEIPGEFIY
UniProt Q13554, sequence (whole entry, looked up): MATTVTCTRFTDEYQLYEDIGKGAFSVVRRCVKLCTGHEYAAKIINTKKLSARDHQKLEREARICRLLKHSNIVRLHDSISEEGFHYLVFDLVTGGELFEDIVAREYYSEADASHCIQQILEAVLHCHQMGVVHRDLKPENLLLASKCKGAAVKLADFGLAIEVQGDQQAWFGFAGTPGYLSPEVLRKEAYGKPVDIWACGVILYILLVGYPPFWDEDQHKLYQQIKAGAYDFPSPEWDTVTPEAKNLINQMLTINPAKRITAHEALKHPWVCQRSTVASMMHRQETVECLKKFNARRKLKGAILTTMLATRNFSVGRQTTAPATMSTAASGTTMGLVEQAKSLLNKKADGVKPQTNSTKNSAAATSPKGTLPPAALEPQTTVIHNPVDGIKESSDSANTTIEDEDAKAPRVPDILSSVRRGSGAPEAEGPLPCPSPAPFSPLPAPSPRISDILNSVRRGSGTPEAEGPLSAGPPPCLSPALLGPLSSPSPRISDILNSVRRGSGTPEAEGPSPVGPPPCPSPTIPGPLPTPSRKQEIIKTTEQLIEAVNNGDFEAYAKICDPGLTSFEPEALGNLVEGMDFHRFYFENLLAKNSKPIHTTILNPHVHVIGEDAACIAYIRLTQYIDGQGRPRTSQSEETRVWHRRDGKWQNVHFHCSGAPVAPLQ
UniProt Q00534, sequence (whole entry, looked up): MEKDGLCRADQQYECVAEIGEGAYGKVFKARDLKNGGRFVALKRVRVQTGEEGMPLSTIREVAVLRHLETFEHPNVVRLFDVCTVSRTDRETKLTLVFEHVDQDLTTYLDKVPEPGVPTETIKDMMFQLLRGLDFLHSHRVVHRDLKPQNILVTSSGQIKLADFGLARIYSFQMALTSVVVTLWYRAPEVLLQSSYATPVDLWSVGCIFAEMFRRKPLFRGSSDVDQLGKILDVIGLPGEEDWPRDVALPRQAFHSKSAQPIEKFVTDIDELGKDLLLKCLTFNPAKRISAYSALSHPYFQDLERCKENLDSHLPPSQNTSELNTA

Set 1
SMILES: O=C1NC(=O)c2c1c1c3ccccc3[nH]c1n1cncc21
Read-out: enzyme activity
Mode: inhibitor
Concentration: 0.5 µM
Baseline: control
Quantity: remaining activity
target = RPS6KA5 (Homo sapiens, UniProt O75582); result = 87.6%
target = MAP4K4 (Homo sapiens, UniProt O95819); result = 21.2%
target = RPS6KA6 (Homo sapiens, UniProt Q9UK32); result = 33.4%
target = HIPK2 (Homo sapiens, UniProt Q9H2X6); result = 94.4%
target = Cyclin-dependent kinase 4, with cyclin D3 (CDK4, Homo sapiens, UniProt P11802); result = 87.1%
target = STK16 (Homo sapiens, UniProt O75716); result = 70.9%
target = WNK3 (Homo sapiens, UniProt Q9BYP7); result = 79.1%
target = STK17A (Homo sapiens, UniProt Q9UEE5); result = 36.6%
target = HIPK4 (Homo sapiens, UniProt Q8NE63); result = 98.5%
target = ABL1 (Homo sapiens, UniProt P00519); result = 85.6%
target = EPHB4 (Homo sapiens, UniProt P54760); result = 105%
target = PHKG1 (Homo sapiens, UniProt Q16816); result = 70.8%
target = TSSK2 (Homo sapiens, UniProt Q96PF2); result = 99.1%
target = EPHA4 (Homo sapiens, UniProt P54764); result = 98.6%
target = Cyclin-dependent kinase 6, with cyclin D3 (CDK6, Homo sapiens, UniProt Q00534); result = 74.3%
target = PDPK1 (Homo sapiens, UniProt O15530); result = 89%
target = EPHB1 (Homo sapiens, UniProt P54762); result = 94%
target = MAPKAPK3 (Homo sapiens, UniProt Q16644); result = 88.7%
target = CAMK2B (Homo sapiens, UniProt Q13554); result = 58.2%
target = BLK (Homo sapiens, UniProt P51451); result = 73.9%
target = SRMS (Homo sapiens, UniProt Q9H3Y6); result = 100%
target = DYRK3 (Homo sapiens, UniProt O43781); result = 85.8%
target = AXL (Homo sapiens, UniProt P30530); result = 91.7%

Set 2
Target: DNA polymerase theta, ATPase domain (POLQ, Homo sapiens, UniProt O75417)
UniProt O75417, sequence (whole entry, unmodified, looked up): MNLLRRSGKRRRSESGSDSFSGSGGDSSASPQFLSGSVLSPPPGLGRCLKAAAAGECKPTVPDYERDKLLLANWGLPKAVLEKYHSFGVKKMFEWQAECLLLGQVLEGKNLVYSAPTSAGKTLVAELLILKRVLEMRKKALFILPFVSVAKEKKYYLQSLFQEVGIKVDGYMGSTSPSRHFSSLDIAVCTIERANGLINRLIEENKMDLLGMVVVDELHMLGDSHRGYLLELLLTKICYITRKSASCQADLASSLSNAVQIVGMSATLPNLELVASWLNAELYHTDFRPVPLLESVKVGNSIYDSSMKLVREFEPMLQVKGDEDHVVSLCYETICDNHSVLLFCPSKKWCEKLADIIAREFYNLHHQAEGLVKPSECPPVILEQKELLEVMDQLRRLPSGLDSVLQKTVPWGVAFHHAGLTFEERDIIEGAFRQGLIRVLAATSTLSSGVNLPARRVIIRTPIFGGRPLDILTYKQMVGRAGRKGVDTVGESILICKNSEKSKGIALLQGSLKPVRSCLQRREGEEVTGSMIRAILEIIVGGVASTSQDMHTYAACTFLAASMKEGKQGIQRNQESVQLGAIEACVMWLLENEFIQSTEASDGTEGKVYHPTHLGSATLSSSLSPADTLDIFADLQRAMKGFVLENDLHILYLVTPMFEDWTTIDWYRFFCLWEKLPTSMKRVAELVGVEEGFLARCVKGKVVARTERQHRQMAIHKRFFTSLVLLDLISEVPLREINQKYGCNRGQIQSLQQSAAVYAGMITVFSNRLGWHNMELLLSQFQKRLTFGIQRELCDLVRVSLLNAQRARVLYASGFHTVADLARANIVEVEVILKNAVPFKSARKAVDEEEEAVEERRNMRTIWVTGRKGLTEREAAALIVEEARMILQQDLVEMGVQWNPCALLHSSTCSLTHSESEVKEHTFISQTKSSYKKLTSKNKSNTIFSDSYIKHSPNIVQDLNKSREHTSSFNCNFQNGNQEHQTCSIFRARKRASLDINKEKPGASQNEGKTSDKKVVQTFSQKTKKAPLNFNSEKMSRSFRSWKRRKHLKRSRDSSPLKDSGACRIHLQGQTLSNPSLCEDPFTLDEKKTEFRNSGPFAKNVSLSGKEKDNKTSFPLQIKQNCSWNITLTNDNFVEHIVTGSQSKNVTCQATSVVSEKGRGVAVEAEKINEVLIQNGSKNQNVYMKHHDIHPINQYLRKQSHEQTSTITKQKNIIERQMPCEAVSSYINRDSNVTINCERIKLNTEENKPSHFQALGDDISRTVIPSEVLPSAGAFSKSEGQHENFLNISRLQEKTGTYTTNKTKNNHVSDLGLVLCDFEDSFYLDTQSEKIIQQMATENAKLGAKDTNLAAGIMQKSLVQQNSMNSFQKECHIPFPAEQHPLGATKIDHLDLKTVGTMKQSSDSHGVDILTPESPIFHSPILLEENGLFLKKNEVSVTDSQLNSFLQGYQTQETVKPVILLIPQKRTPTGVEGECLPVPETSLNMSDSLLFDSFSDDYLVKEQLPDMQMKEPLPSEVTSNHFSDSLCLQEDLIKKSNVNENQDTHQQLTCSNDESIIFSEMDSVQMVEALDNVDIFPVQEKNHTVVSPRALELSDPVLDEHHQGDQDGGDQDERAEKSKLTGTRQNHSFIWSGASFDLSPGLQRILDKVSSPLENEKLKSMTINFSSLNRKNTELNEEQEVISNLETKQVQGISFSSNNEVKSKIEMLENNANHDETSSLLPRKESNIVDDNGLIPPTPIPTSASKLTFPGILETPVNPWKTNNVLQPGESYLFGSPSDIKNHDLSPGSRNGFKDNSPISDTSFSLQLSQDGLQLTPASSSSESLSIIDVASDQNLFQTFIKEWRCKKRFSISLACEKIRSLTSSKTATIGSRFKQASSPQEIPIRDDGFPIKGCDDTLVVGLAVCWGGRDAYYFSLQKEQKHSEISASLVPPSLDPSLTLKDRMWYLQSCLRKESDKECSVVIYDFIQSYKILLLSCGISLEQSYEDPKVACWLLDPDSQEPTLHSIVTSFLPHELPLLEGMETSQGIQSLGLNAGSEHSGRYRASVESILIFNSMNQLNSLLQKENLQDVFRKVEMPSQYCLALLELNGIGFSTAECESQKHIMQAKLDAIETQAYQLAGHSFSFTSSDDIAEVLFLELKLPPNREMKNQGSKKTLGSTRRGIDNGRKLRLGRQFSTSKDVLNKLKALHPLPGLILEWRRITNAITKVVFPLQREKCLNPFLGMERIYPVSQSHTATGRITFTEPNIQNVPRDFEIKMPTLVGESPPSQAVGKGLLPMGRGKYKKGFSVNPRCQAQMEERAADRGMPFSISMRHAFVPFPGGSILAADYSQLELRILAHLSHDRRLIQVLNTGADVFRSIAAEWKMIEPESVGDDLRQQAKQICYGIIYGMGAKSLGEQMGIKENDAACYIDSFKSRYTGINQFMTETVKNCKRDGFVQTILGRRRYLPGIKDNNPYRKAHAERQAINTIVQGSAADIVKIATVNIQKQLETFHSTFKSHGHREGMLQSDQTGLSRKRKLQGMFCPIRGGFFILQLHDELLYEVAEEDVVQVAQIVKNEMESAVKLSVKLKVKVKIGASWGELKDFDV
Read-out: enzyme activity
Mode: inhibitor
Concentration: 77 µM
Baseline: untreated
Quantity: remaining activity
SMILES = CC(C)C[C@H]1C(=O)N2CCC[C@H]2[C@]2(O)O[C@](NC(=O)[C@@H]3C=C4c5cccc6[nH]c(Br)c(c56)CC4N(C)C3)(C(C)C)C(=O)N12 (stereo partly shown); result = 94.7%
SMILES = CO[C@@]1(NC(=O)Cc2cccs2)C(=O)N2C(C(=O)O)=C(COC(N)=O)CS[C@@H]21; result = 101%
SMILES = Cc1c(C)c2c(c(C)c1O)CCC(C)(C(=O)O)O2 (stereo not shown); result = 100%
SMILES = Cc1ncc2ccccc2c1C#N; result = 106%
SMILES = O=C(c1ccc(Nc2nccc(-c3cc4ccccc4s3)n2)cc1)N1CCC(N2CCCC2)CC1; result = 95.4% and 115%
SMILES = O=C(O)c1ccc(-n2nc(-c3ccccc3O)nc2-c2ccccc2O)cc1; result = 73.6%
SMILES = Brc1ccc([C@H]2CN3CCSC3=N2)cc1; result = 100% and 90.5%
SMILES = Cn1c(=O)c2nc(-c3ccccc3)[nH]c2n(C)c1=O; result = 105%
SMILES = c1nc2c(NC3CCCCC3)nc(Nc3ccc(N4CCOCC4)cc3)nc2[nH]1; result = 100%
SMILES = CC(S)C(=O)NCC(=O)O (stereo not shown); result = 98.1%

Set 3
Structure (SMILES): CCOc1ccc(Nc2c3c(nc4ccccc24)CCC3)cc1
Organism: Leishmania donovani
Strain: DD8
Quantity: inhibition
read-out = parasite killing; sample = intracellular amastigotes; concentration = 0.8 µM; time = 72 h; result = 53% and 57% and 58%
read-out = parasite killing; sample = promastigotes; concentration = 33.33 µM; time = 96 h; result = 100%
read-out = parasite killing; sample = promastigotes; concentration = 3.33 µM; time = 96 h; result = 69% and 71% and 68%
read-out = parasite killing; sample = intracellular amastigotes; concentration = 4 µM; time = 96 h; result = 94% and 69% and 97%
read-out = parasite killing; sample = promastigotes; concentration = 33.33 µM; time = 48 h; result = 100%
read-out = parasite killing; sample = intracellular amastigotes; concentration = 0.4 µM; time = 24 h; result = 11% and 9% and 14%
read-out = parasite killing; sample = promastigotes; concentration = 0.33 µM; time = 96 h; result = 13% and 10% and 20%
read-out = parasite killing; sample = promastigotes; concentration = 16.66 µM; time = 48 h; result = 98% and 97%
read-out = parasite viability; technique = resazurin; sample = promastigotes; concentration = 33.33 µM; result = 100%
read-out = parasite viability; technique = resazurin; sample = promastigotes; concentration = 0.66 µM; result = 8% and 10% and 20% and 25% and 24% and 4%

Set 4
SMILES: CO[C@@H](C)c1c(Nc2ccc([C@H](N(C)C(=O)C3CCS(=O)(=O)CC3)C(F)(F)F)cc2)cnc2cc(Cl)nn12
Concentration: 10 µM
Quantity: inhibition
target = DRD1 (Homo sapiens, UniProt P21728); read-out = ligand displacement; result = 23.7%
target = HRH2 (Homo sapiens, UniProt P25021); read-out = ligand displacement; result = -9.88%
target = ADRA2B (Homo sapiens, UniProt P18089); read-out = ligand displacement; result = 0.32%
target = HTR1B (Homo sapiens, UniProt P28222); read-out = binding; technique = radioligand binding; result = 12.5%
target = DRD3 (Homo sapiens, UniProt P35462); read-out = ligand displacement; result = -4.43%
target = ADRB3 (Homo sapiens, UniProt P13945); read-out = ligand displacement; result = 15.4%
target = HTR1E (Homo sapiens, UniProt P28566); read-out = cell-free assay; result = -13.1%
target = HRH3 (Homo sapiens, UniProt Q9Y5N1); read-out = ligand displacement; result = -5.74%
target = CHRM4 (Homo sapiens, UniProt P08173); read-out = ligand displacement; result = 21.3%
target = ADRA1A (Homo sapiens, UniProt P35348); read-out = ligand displacement; result = -7.59%
target = DRD2 (Homo sapiens, UniProt P14416); read-out = ligand displacement; result = 4.1%
target = HTR1D (Homo sapiens, UniProt P28221); read-out = cell-free assay; result = -2.45%

Excerpt of the above (set 1):
target = HIPK4 (Homo sapiens, UniProt Q8NE63); result = 98.5%
target = ABL1 (Homo sapiens, UniProt P00519); result = 85.6%
target = EPHB4 (Homo sapiens, UniProt P54760); result = 105%
target = PHKG1 (Homo sapiens, UniProt Q16816); result = 70.8%
target = TSSK2 (Homo sapiens, UniProt Q96PF2); result = 99.1%
target = EPHA4 (Homo sapiens, UniProt P54764); result = 98.6%
target = Cyclin-dependent kinase 6, with cyclin D3 (CDK6, Homo sapiens, UniProt Q00534); result = 74.3%
target = PDPK1 (Homo sapiens, UniProt O15530); result = 89%
